Measurements gathered from unrelated publications.
Compare with care: the assays were run in different laboratories.
Cell line: OVCAR-8

Structure (SMILES) | assay | conditions | how to read | endpoint | result
CCCN1CCN(c2ccc3[nH]c(-c4ccc5[nH]c(-c6ccc(OCC)c(OCC)c6)nc5c4)nc3c2)CC1 | SRB | 10 µM, 48 h | – | growth percent | -11%
O=C(Nc1nnc2n3c(=S)[nH][nH]c3nc(-c3ccc(Cl)cc3)c1-2)c1ccccc1 | SRB | 10 µM, NCI60 single-dose screen | reference: untreated | cell growth | 91.6%
C#C[C@@]1(O)[C@@H](CO)O[C@@H](n2ccc3c(N)ncnc32)[C@@H]1O | SRB | NCI-60 screen | – | TGI | 4.11 µM
CCCCN1CCN(c2ccc3[nH]c(-c4ccc5[nH]c(-c6cc(OC)c(OC)c(OC)c6)nc5c4)nc3c2)CC1 | SRB | 10 µM, 48 h | – | growth percent | 56.2%
O=C(Nc1nnc2[nH]c(=S)[nH]c(-c3ccc(Cl)cc3)c1-2)c1ccccc1 | SRB | 10 µM, NCI60 single-dose screen | reference: untreated | cell growth | 104%
CCN(CC)c1ccc(C=NNC(=O)CSc2nc3ccccc3c(=O)n2Cc2ccc(S(N)(=O)=O)cc2)c(O)c1 | NCI five-dose screen | – | – | TGI | > 100 µM
Cc1cc(=O)[nH]n1-c1nc(-c2ccc(Cl)cc2)c2c(NC(=O)c3ccccc3)nnc-2[nH]1 | SRB | 10 µM, NCI60 single-dose screen | reference: untreated | cell growth | 77.3%
C#C[C@@]1(O)[C@@H](CO)O[C@@H](n2cc(Br)c3c(N)ncnc32)[C@@H]1O | SRB | NCI-60 screen | – | TGI | 1.12 µM
Cc1cc(C)n(-c2nc(-c3ccc(Cl)cc3)c3c(NC(=O)c4ccccc4)nnc-3[nH]2)n1 | SRB | 10 µM, NCI60 single-dose screen | reference: untreated | cell growth | 102%
Cn1cncc1C1=CN(c2ncnc3[nH]cnc23)CCS1 | – | ovarian cancer | – | GI50 | 30.9 µM
COc1ccc(OC)c(-c2nc3ccc(-c4nc5ccc(N6CCN(C)CC6)cc5[nH]4)cc3[nH]2)c1 | SRB | 10 µM, 48 h | – | growth percent | 102%
S=C([S][Au-][P+](CCCCCC[P+]([Au-][S]C(=S)n1cccn1)(c1ccccc1)c1ccccc1)(c1ccccc1)c1ccccc1)n1cccn1 | cell growth, NCI-60 screen | ovarian cancer | – | log10 TGI | > -4
CCCN1CCN(c2ccc3[nH]c(-c4ccc5[nH]c(-c6cc(OC)c(OC)c(OC)c6)nc5c4)nc3c2)CC1 | SRB | 10 µM, 48 h | – | growth percent | 75.5%
O=C1NCCc2[nH]c(-c3ccncc3)cc21 | MTS | NCI60 panel | – | IC50 | 3.6 µM

A few entries again:
Structure (SMILES) | assay | conditions | how to read | endpoint | result
CCCN1CCN(c2ccc3[nH]c(-c4ccc5[nH]c(-c6ccc(OCC)c(OCC)c6)nc5c4)nc3c2)CC1 | SRB | 10 µM, 48 h | – | growth percent | -11%
